Experimental data of several laboratories.
A part holds a random share of what one study measured.

Block 1 — method: RNA Bind-n-Seq; form: RNA; medium: in vitro; tested at: not given; relative to: input RNA pool; reading: higher = stronger binding
Target: RING finger protein unkempt homolog, zinc fingers 1-6, GST-SBP tag (UNK, Homo sapiens, UniProt Q9C0B0, residues 30-357)
Notes: RNA with constant flanks, human and mouse sites, ends assumed
All sequences stand within: GGGAGUUCUACAGUCCGACGAUC … CAACAGAGGAUUGAGCAUCA
Residues (chain): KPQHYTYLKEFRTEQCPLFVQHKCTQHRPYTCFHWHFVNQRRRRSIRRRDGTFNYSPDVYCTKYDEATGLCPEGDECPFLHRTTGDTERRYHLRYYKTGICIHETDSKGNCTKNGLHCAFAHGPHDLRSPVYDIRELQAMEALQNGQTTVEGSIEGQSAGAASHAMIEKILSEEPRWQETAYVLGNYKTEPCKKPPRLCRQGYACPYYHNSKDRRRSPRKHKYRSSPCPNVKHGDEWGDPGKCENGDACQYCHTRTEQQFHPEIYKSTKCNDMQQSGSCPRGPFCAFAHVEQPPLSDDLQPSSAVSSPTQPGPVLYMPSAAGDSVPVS
Strand	bound/input enrichment
AAGGCUCUGUGUGUGUGUGUGUGUGUGUGUGUGUGUGUGUGUGUGUGUGUGUGUGUUUGUGUUUGUGUAUCUAGGAAGGCUGUGUGUGUUUGUGUAUCUAGGAAGGCUGUGUGUGUUUAU	5.89 ratio
UUUUGGUGUGUCAUCUUGUUUUUCACAACAUUUUUUCUGUCUUCAUUCCUCAAGCAAUUUAAGACCAAGCGUUACUUUCCUACCAAGGUGCGAUCGACAAUCAGUGAUUUUGCUGUAUUU	0.203 ratio
CACCCUGUUCUCAGUAAAGAUCGCAACUUUCAUGUUUUCCUGGAAUAUGAUCAGGAUCUAAGUGUUAGGCGGAAAAAUACUAAAGAGAUGUUUGGUGGCUUCUUCAAAAGUGUGGUGAAA	0.204 ratio
AUGUUCAUCAGUAGAUGCUAUUAUUCAUAAGAACUGUGAUUCCAGCAAACUAGGGUAAUUGGUGCCUUUUUACAGUUUUGAAUAAAAGCAUUUACAAUUUCUAAAUUAUCAGUUUUCACA	0.449 ratio
UGAAGGAGUCGCAGAAGCUGCACUACGUUGUGACCGAGGUUCAGGGCCCCAGCAUCACUGUGGAGUUUUCCGACUGCAAAGCUUCUCUCCAGCUCCCCAUGGAGAAGGCCAUUGAAACUG	0.214 ratio
UGAGAAUGUUAUUUAAAGUUGUAUUAUAAUGUCACCUCCAAUAAUUAUUCAGUACUGUAGUAGCAAUGUGUUAUUUGUAAGAAUUUGGUUAUUUUUUAUACUUAUAUCCACUCUAAGUCU	0.461 ratio
ACUGCAGGUCUAACAAUGCAUGCAUCAAUUCUUGCAUAUAUGUUUAAUUUGGUUGAAGAAGGAAAAAUAAGUACACCACUAAAUCCUGGAAAUCCAGUUAACAACCAAAUGUUUAUUCAA	0.131 ratio
CAUCGCCAACGGAAUCUUAGUGGAAGCACCCUCUAUCCUGUGUCUAAUAUCCCACGGUCUAAUGUAACCCCCUUUGGAAGUCCAGUGACCCCAGAAGUUCAUGUUUUCACAAAUGUUCAC	0.325 ratio
GCAGUGGACCAGGAGCAGCUUGGAGUUUUAACUUUCAUUUUACAAAGAACAACAUGUUUGAAUGUUUCAGCAGGCAAGUUAUAACUGGCAUCUACUUCUUGUUCUUCUAGAACACCGAAA	0.182 ratio
GGGCUGCUGUGCGAGUUCAGCGAUCGCAGGCUUCUGGACAAAUGGGUGGAGCUAAGGACCACUGUGGCCCACUGCAUCUCUGUCACCCAAGAAUACAUCUUCUGUGGCUGUGCUGAUGGC	0.0791 ratio
GAUAUCCAUUUGAAUGAAAUGGCUGGAGACAUCUUGGUUUUUCUGACUGGCCAGUUUGAAAUAGAAAAAAGUUGUGAGUUACUUUUUCAGAUGGCAGAGUCUGUUGAUUAUGAUUAUGAU	0.234 ratio

Block 2 — method: RNA Bind-n-Seq; form: RNA; medium: in vitro; tested at: 365 nM; relative to: no-protein control; reading: higher = stronger binding
Target: RNA binding protein fox-1 homolog 2, RRM domain, GST-SBP tag (RBFOX2, Homo sapiens, UniProt O43251-10, residues 100-194)
Notes: natural RNA segment, single round, ends assumed
All sequences stand within: GGGAGUUCUACAGUCCGACGAUC … UGGAAUUCUCGGGUGCCAA
Residues (chain): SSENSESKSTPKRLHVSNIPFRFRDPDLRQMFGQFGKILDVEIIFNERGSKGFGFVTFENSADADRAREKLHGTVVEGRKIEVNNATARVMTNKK
Strand	RBNS enrichment (R)
CCUUCCAGAAUCCAGGCCCCAUCUCCCCCAACUCCACAGCCCCUCCCGAGCCUCAAGGCAAGUCCAGGACUCAGACCGGGGAGGCCCGGGCCAGCAGCUCCCAGUGUGAC	0.292
UCCAGCUUGUUGUGUUUAUAAAUCAUAAAGUCAUGAUAUACCUUCUACAGACAUAGCAUUUUUUCAGAGAUGGAAAAUGGCCAUUAGAGUCACUUUCCAUAUUAUACCCU	0.539
ACACAUGGUUUGGAUGCUUCUAUAUUGGCCCUGCCCAGGUAGAAAGGGUAAGAAGAACAUGUAGAAUCCAGAUUCCCUGAGUGUGAGGGACCCAUGGUGCAUUUGUAAUA	0.804
UCCUCCAACUCCAAAACCCAAAGUGUCCGUGCUGUGUCCCUGUGCUUCACUGGGUUUCUCAACCGUGGCUUUUCACCGCAGCUUGUCUGAAACUCUUAGCCUGCAGAAUU	0.873
GAAAAAAGGACACUUGUAGAGUAAGUGAAAUGGAUACUACAUCUUUAAACAGCGUUUCUUCAUUGCCUGUGUAUGAGAAAAACUUGGAAGUGUGCCUGUGUAUAUAACUC	14.3
UGGCUGCCAGUAGCAGGCCUGGCAUGGCGUGACGGGAGGGGCCUAAUUACCUAGCUGUUGCUGGACACCAGCUGUGCAUACCUGAGCAUGCCCAGUGCAUGUUGGGUCCA	3.87
AUGCUAAAUGUUUUAAUCAAGAGAAGCACUGAUCUUAUAAUACGAGGAUAAGAGAUUUUCUCACAGGAAAUUGUCUUUUUCAUAAUUCUUUUACAGGCUUUGUCCUGAUC	0.661
AGGGGAUCCUGAAGCUGAUAUAAAUAAGUCUAGCUCUAUAAUCCCCAAGUUCUAAAAGUUAUGGUUAGAUGCUAUUCUGUGGGUUGCUUUGAUAAUUCUUACUAACACAG	0.869
UCCUGCUUUUACUUUUGUCAUUUUCUUGAUAAUCGUAAGCCUUGAGAGUGUUUGUGAAAAAGUUUUAUUUCCUGUUAUGUAUACAUAAUUAAAUGAAAAUUCUUCAGAAA	0.259

Block 3 — method: RNA Bind-n-Seq; form: RNA; medium: in vitro; tested at: 200 nM; notes: whole 134-nt RNA, ends assumed; together with: 150 mM LiCl; relative to: input library; reading: higher = stronger binding; all molecules: 7-deaza-guanosine replaces G
Target: Fragile X messenger ribonucleoprotein 1, C-terminal low-complexity region (Fmr1, Mus musculus, UniProt P35922)
All sequences stand within: GGGAGUUCUACAGUCCGACGAUC … UGGAAUUCUCGGGUGUCAAGG
Strand	log2 enrichment
GCAGGAAGUAAAAACAAAUGGAAAUGCUUCGGAUAGUGGCAGGGGUGGGGGUUGCUAAGGAAAGGGUGGAAUGGGAGUGGGUAAAGAGUU	1.42
CUCAAGUCCUGUGCUACACAUCGUAUGUACCGAAUCGGGUUUGGGUGGGAGGGAAAGUAUUAUGUUACGCCGUUCGGAUCUGCACUUCCA	-0.513
UCCUCAAGUCCUGUGCUACACAUCGUAUGUACCGAAUCGGAGGUGGAAAGGAAAGUAUUAUGUUACGCCGUUCGGAUCUGCACUUCCAGC	-1.02
GUCCUGUGCUACACAUCGUAUGUACCGAAUCGGGGUUUUUGGGGUUUGGGGAAAGGGGAAAGUAUUAUGUUACGCCGUUCGGAUCUGCAC	-1.03
UCCUGUGCUACACAUCGUAUGUACCGAAUCAAACCCCCCCAAACCCCCAAAUUUUUAAAAAAGUAUUAUGUUACGCCGUUCGGAUCUGCA	1.39
GCAGGAAGUAAAAACAAAUGGAAAUGCUUCGGAUAGUGGCAGGGGUGGGUGUUGCUAAGGAAAGGGUGGGAUGGGAGUGGGUAAAGAGUU	1.26
UGGGAGGUGGAUUUUGUUUAUUUUUUUAGCUCAUUUCCAGGGGUGGGAAUUUUUUUUUAAUAUGUGUCAGGAAUAAAGUUGUUUUUGAAA	0.395
UGGCCCUGGCGGCAUGCGGGGAGGAAGAGGUGGCCUCAUGGAUCGUGGUGGUCCCGGUGGAAUGUUCAGAGGUGGCCGUGGUGGAGACAG	0.0474
AGUCCUGUGCUACACAUCGUAUGUACCGAAUCAAACCCAAAUUUAAAUUUUUUUAAAAAAGUAUUAUGUUACGCCGUUCGGAUCUGCACU	-1.42
AGUCCUGUGCUACACAUCGUAUGUACCGAAUCGGAAAAAGGAAAAAGGAAAAAGGGGAAAGUAUUAUGUUACGCCGUUCGGAUCUGCACU	-1.54
GUCCUGUGCUACACAUCGUAUGUACCGAAUCGGGUUUGGGAAAAAAAGGGUUUUUGGGAAAGUAUUAUGUUACGCCGUUCGGAUCUGCAC	-1.91

Block 4 — method: EMSA with sequencing; form: double-stranded DNA, one strand shown; medium: in vitro; tested at: 10 and 20 nM; relative to: negative control set to 0; reading: higher = stronger binding
Target: Hepatocyte nuclear factor 3-alpha (Foxa1, Mus musculus, UniProt P35582, residues 1-468, full length assumed)
Notes: whole designed probe, mean of two concentrations, ends assumed
All sequences stand within: GTGAGCGGTGCCCATTGATGGGGAAC … TTTCACTGGGATCGTGGGGAC
Target sequence (chain): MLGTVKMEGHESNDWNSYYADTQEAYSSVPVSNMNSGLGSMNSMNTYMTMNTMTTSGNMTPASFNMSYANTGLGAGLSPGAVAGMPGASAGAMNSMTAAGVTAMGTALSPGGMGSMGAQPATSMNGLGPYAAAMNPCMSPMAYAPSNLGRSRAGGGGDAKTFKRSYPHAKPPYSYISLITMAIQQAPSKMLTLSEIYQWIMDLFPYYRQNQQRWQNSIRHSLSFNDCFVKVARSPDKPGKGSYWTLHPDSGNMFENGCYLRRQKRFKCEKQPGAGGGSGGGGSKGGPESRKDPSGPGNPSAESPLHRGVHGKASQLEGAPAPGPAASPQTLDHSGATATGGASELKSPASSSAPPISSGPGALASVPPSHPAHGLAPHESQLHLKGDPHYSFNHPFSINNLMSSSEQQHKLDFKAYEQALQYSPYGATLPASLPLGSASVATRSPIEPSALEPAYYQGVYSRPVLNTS
Strand	normalised bound fraction [ratio]
ATCTTCCCCCTCTTCCTTGCCCCACCAGCTCACCTTCCCGGGTTATTTGCAGATAGGACACTTACAGTAAGAAATAGACGTTAACCCTCTTCTGGCGCAAACTGCTGTTTGCTCTGGATGAATCATGGTCCTTTGGCGACGCCAGGCTCCGGGAGAGCAAAGCACCGTGTCAGGGCCATGATCCGGGGTGGCC	0.193
AGGTTAAAGATTACATTCTAACCACACACCAGTCATACTCTGCTCCGGGAAAAACCTTAAGTACTTGTGACCTTCTGTCCCTAACTTAGATGTTGTTTACTTTCAGTTTACATACAGTGCAAACACCAGGGTGTACATGATTTTCAAGTCAAAAAAGATAAGGACTAATCCAGAAAGGAGAAGGAATTCTGTT	0.381
ATCTTCCCCCTCTTCCTTGCCCCACCAGCTCACCTTCCCGGGTTATTTGCACAAAGGAAAATAAATAAAGCCGGCATTCGTTAACCCTCTTCTGGCGCAAACTGCTGTTTGCTCTGCATGAATCATGGTCCTTACGCGAGGCGTGGCTCCGGGAGAGCAAAGCACCGTGTCAGGCGCATGATCCGGGGTGGCC	0.368
TATGTTTATTTCATTTTCTCCACAAGAGATTCTTTCTCACAGTCAGAACGTGTGGCTTAGCACTACCTAGGGAGCTTGTTTGCCTCCATTTTCTTGTTTACTTAACAGAGAATGGGAGGCAGAAGTTAAAGCCCAGCAATGTCTTTTAGCTACACTTTGTATTAGTACTTCCATCTTCCTCTTCTTAACTAGG	0.537
ATCTTCCCCCTCTTCCTTGCCCCACCAGCTCACATGGACTTCTTGCGCCGTTATAGGAAAATAAATAAAGCCGGCATTCGTTAACCCTCTTCTGGCGCAAACTGCTGTTTGCTCTGGATGAATCATGGTCCTTTGGCGACGCCAGGCTCCGGGAGAGCAAAGCACCGTGTCAGGGCCATGATCCGGGGTGGCC	0.323
ATGAAATGTTTATTAAGCACCTGTTATTACACACTGGGGGACCCGAAGAGTTATACAACAGCTCATTTATAAAACCTAGCAGGAGGGACACAATGTAAACATGAGCAAATGACAATAAAAATTTCATTTGAAATAAATGTAATATTTGATAAGTGTTCAAGACATTTAGAGGAGGGAGTCATCGTTGCATCCC	0.43

Excerpt of the above (block 3):
Strand	log2 enrichment
UCCUGUGCUACACAUCGUAUGUACCGAAUCAAACCCCCCCAAACCCCCAAAUUUUUAAAAAAGUAUUAUGUUACGCCGUUCGGAUCUGCA	1.39
AGUCCUGUGCUACACAUCGUAUGUACCGAAUCAAACCCAAAUUUAAAUUUUUUUAAAAAAGUAUUAUGUUACGCCGUUCGGAUCUGCACU	-1.42
